# Results of several laboratories.
# Compare with care: the assays were run in different laboratories.
# B1: aqpZ 1-231 C20S/W14A/G144F (Escherichia coli, UniProt P60844); chain MFRKLAAECFGTFALVFGGSGSAVLAAGFPELGIGFAGVALAFGLTVLTMAFAVGHISGGHFNPAVTIGLWAGGRFPAKEVVGYVIAQVVGGIVAAALLYLIASGKTGFDAAASGFASNGYGEHSPGGYSMLSALVVELVLSAFFLLVIHGATDKFAPAGFAPIAIGLALTLIHLISIPVTNTSVNPARSTAVAIFQGGWALEQLWFFWVVPIVGGIIGGLIYRTLLEKRD
# B2: UGT1A9 (Homo sapiens, UniProt O60656); chain GKLLVVPMDGSHWFTMRSVVEKLILRGHEVVVVMPEVSWQLGRSLNCTVKTYSTSYTLEDLDREFKAFAHAQWKAQVRSIYSLLMGSYNDIFDLFFSNCRSLFKDKKLVEYLKESSFDAVFLDPFDNCGLIVAKYFSLPSVVFARGILCHYLEEGAQCPAPLSYVPRILLGFSDAMTFKERVRNHIMHLEEHLLCHRFFKNALEIASEILQTPVTEYDLYSHTSIWLLRTDFVLDYPKPVMPNMIFIGGINCHQGKPLPMEFEAYINASGEHGIVVFSLGSMVSEIPEKKAMAIADALGKIPQTVLWRYTGTRPSNLANNTILVKWLPQNDLLGHPMTRAFITHAGSHGVYESICNGVPMVMMPLFGDQMDNAKRMETKGAGVTLNVLEMTSEDLENALKAVINDKSYKENIMRLSSLHKDRPVEPLDLAVFWVEFVMRHKGAPHLRPAAHDLTWYQYHSLDVIGFLLAVVLTVAFITFKCCAYGYRKCLGKKGRVKKAHKSKTH
# B3: Il2/Il2ra IL-2 fused to CD25 ectodomain (Mus musculus); chain APTSSSTSSSTAEAQQQQQQQQQQQQHLEQLLMDLQELLSRMENYRNLKLPRMLTFKFYLPKQATELKDLQCLEDELGPLRHVLDLTQSKSFQLEDAENFISNIRVTVVKLKGSDNTFECQFDDESATVVDFLRRWIAFCQSIISTSPQGGGSGGGSGGGSELCLYDPPEVPNATFKALSYKNGTILNCECKRGFRRLKELVYMRCLGNSWSSNCQCTSNSHDKSRKQVTAQLEHQKEQQTTTDMQKPTQSMHQENLTGHCREPPPWKHEDSKRIYHFVEGQSVHYECIPGYKALQRGPAISICKMKCGKTGWTQPQLTCVDEREHHRFLASEESQGSRNSSPESETSCPITTTDFPQPTETTAMTETFVLTMEYKGG
# B4: ITGB4 1126-1752 (Homo sapiens, UniProt P16144-2); sequence looked up; chain DLGAPQNPNAKAAGSRKIHFNWLPPSGKPMGYRVKYWIQGDSESEAHLLDSKVPSVELTNLYPYCDYEMKVCAYGAQGEGPYSSLVSCRTHQEVPSEPGRLAFNVVSSTVTQLSWAEPAETNGEITAYEVCYGLVNDDNRPIGPMKKVLVDNPKNRMLLIENLRESQPYRYTVKARNGAGWGPEREAIINLATQPKRPMSIPIIPDIPIVDAQSGEDYDSFLMYSDDVLRSPSGSQRPSVSDDTEHLVNGRMDFAFPGSTNSLHRMTTTSAAAYGTHLSPHVPHRVLSTSSTLTRDYNSLTRSEHSHSTTLPRDYSTLTSVSSHDSRLTAGVPDTPTRLVFSALGPTSLRVSWQEPRCERPLQGYSVEYQLLNGGELHRLNIPNPAQTSVVVEDLLPNHSYVFRVRAQSQEGWGREREGVITIESQVHPQSPLCPLPGSAFTLSTPSAPGPLVFTALSPDSLQLSWERPRRPNGDIVGYLVTCEMAQGGGPATAFRVDGDSPESRLTVPGLSENVPYKFKVQARTTEGFGPEREGIITIESQDGGPFPQLGSRAGLFQHPLQSEYSSITTTHTSATEPFLVDGLTLGAQHLEAGGSLTRHVTQEFVSRTLTTSGTLSTHMDQQFFQT
# B5: ALPL 18-500 (Homo sapiens, UniProt P05186); sequence looked up; chain LVPEKEKDPKYWRDQAQETLKYALELQKLNTNVAKNVIMFLGDGMGVSTVTAARILKGQLHHNPGEETRLEMDKFPFVALSKTYNTNAQVPDSAGTATAYLCGVKANEGTVGVSAATERSRCNTTQGNEVTSILRWAKDAGKSVGIVTTTRVNHATPSAAYAHSADRDWYSDNEMPPEALSQGCKDIAYQLMHNIRDIDVIMGGGRKYMYPKNKTDVEYESDEKARGTRLDGLDLVDTWKSFKPRYKHSHFIWNRTELLTLDPHNVDYLLGLFEPGDMQYELNRNNVTDPSLSEMVVVAIQILRKNPKGFFLLVEGGRIDHGHHEGKAKQALHEAVEMDRAIGQAGSLTSSEDTLTVVTADHSHVFTFGGYTPRGNSIFGLAPMLSDTDKKPFTAILYGNGPGYKVVGGERENVSMVDYAHNNYQAQSAVPLRHETHGGEDVAVFSKGPMAHLLHGVHEQNYVPHVMAYAACIGANLGHCAPA
# B6: DCAF1 817-1507 (Homo sapiens, UniProt Q9Y4B6); sequence looked up; chain SGKPLLIGTDVSLARLQKADVVAQSRISFPEKELLLLIRNHLISKGLGETATVLTKEADLPMTAASHSSAFTPVTAAASPVSLPRTPRIANGIATRLGSHAAVGASAPSAPTAHPQPRPPQGPLALPGPSYAGNSPLIGRISFIRERPSPCNGRKIRVLRQKSDHGAYSQSPAIKKQLDRHLPSPPTLDSIITEYLREQHARCKNPVATCPPFSLFTPHQCPEPKQRRQAPINFTSRLNRRASFPKYGGVDGGCFDRHLIFSRFRPISVFREANEDESGFTCCAFSARERFLMLGTCTGQLKLYNVFSGQEEASYNCHNSAITHLEPSRDGSLLLTSATWSQPLSALWGMKSVFDMKHSFTEDHYVEFSKHSQDRVIGTKGDIAHIYDIQTGNKLLTLFNPDLANNYKRNCATFNPTDDLVLNDGVLWDVRSAQAIHKFDKFNMNISGVFHPNGLEVIINTEIWDLRTFHLLHTVPALDQCRVVFNHTGTVMYGAMLQADDEDDLMEERMKSPFGSSFRTFNATDYKPIATIDVKRNIFDLCTDTKDCYLAVIENQGSMDALNMDTVCRLYEVGRQRLAEDEDEEEDQEEEEQEEEDDDEDDDDTDDLDELDTDQLLEAELEEDDNNENAGEDGDNDFSPSDEELANLLEEGEDGEDEDSDADEEVELILGDTDSSDNSDLEDDIILSLNE
# B7: aqpZ 1-231 C20S/W14A (Escherichia coli, UniProt P60844); chain MFRKLAAECFGTFALVFGGSGSAVLAAGFPELGIGFAGVALAFGLTVLTMAFAVGHISGGHFNPAVTIGLWAGGRFPAKEVVGYVIAQVVGGIVAAALLYLIASGKTGFDAAASGFASNGYGEHSPGGYSMLSALVVELVLSAGFLLVIHGATDKFAPAGFAPIAIGLALTLIHLISIPVTNTSVNPARSTAVAIFQGGWALEQLWFFWVVPIVGGIIGGLIYRTLLEKRD
Molecule,tested on,assay,system,setting,how to read,endpoint,result
B1 (aqpZ 1-231 C20S/W14A/G144F),itself,light scattering,proteoliposomes,hyperosmotic shock,,channel permeability,9.5e-14 cm^3 s^–1
B2 (UGT1A9),CC(C)(c1ccc(O)cc1)c1ccc(O)cc1,steady-state kinetics,,"pH 7.4, 37 °C",,Km,91.8 µM
CRYAA R116H (Homo sapiens) (sequence not shown),itself,SEC-MALS,,,,binding,binds
B3,itself,pSTAT5,mouse splenic Tregs,15 min,"relative to: mIL-2, higher = stronger signaling",pSTAT5 induction,555 fold
B4 (ITGB4 1126-1752),itself,time-resolved fluorometry overlay assay,,NaCl 500 mM,"relative to: lower NaCl binding, higher = more binding",relative binding,5 fold
"DIQKVAGTWY (LGB 11-20 (Bos taurus); N-acetyl, C-terminal amide)",itself,solid-state NMR,peptide,,,binding,binds
B5 (ALPL 18-500),itself,crystal structure,,,,binding,binds
CRYAA R116C (Homo sapiens) (sequence not shown),itself,SEC-MALS,,,,binding,binds
B6 (DCAF1 817-1507),itself,in vitro ubiquitination,,,"relative to: monomeric complex, higher = more ubiquitination",ubiquitination of UNG2,> 2 fold
B7 (aqpZ 1-231 C20S/W14A),itself,light scattering,proteoliposomes,hyperosmotic shock,,channel permeability,4.1e-14 cm^3 s^–1

# A few entries again:
Molecule,tested on,assay,system,setting,how to read,endpoint,result
CRYAA R116C (Homo sapiens) (sequence not shown),itself,SEC-MALS,,,,binding,binds
